Measurements from different studies.
Numbers after ± are the reported error.
Cell line: HeLa

`Oc1c(Br)cc(Br)c2nc3cc(C(F)(F)F)ccc3nc12` gave an IC50 of greater than 100 µM (cytotoxicity, LDH release; 24 h, 10% FBS).
`CC(=O)[O-].Nc1ccc(C([O-])=NN=Cc2ccc(OCC(=O)Nc3ccc(Cl)cc3)cc2)cc1.O.O.O.[Ni+2]` has an IC50 of 24.2 ± 2.2 µg/mL (cytotoxicity, MTT; 24 h).
`CC1=[N+]2N=C(c3ccccc3)[O][Pd-2]2([Cl])[O+]=C2Oc3ccccc3C=C21` (centres unmarked) has an IC50 of 10.8 ± 0.9 µM (cytotoxicity, MTT; 24 h).
`O=C1CCC(N2Cc3c(NC(=O)COCCOCCOCCNCCNc4nonc4/C(=N/O)Nc4ccc(F)c(Br)c4)cccc3C2=O)C(=O)N1` (centres unmarked) gave an IC50 of greater than 40 µM (cytotoxicity, MTT; 48 h).
For `CC1(C)CC[C@]2(C(=O)O)CC[C@]3(C)C(=CC[C@@H]4[C@@]5(C)CC[C@H](O)[C@@](C)(C(=O)O)[C@@H]5CC[C@]43C)[C@@H]2C1`, the IC50 was 43.6 µM (cell growth or viability, MTT; 72 h).
The IC50 of `Oc1c(Br)cc(Br)c2nc3cc(F)ccc3nc12` is reported as greater than 100 µM (cytotoxicity, LDH release; 24 h, 10% FBS).
`CC1(C)[C@@H](O)CC[C@]2(C)[C@H]3CC=C4[C@@H]5C[C@](C)(CO)CC[C@]5(C(=O)O)CC[C@@]4(C)[C@]3(C)CC[C@@H]12` gave an IC50 of greater than 100 µM (cell growth or viability, MTT; 72 h).
For `C[C@H](NC(=O)CCCCCC1(C)C(/C=C/C=C/C=C2/N(CCCS(=O)(=O)O)c3ccc(S(=O)(=O)O)cc3C2(C)C)=[N+](CCCS(=O)(=O)[O-])c2ccc(S(=O)(=O)O)cc21)C(=O)N[C@@H](CC(=O)Nc1ccc(C(F)(F)C(F)(F)C(F)(F)C(F)(F)C(F)(F)C(F)(F)F)cc1)C(=O)N[C@@H](Cc1ccccc1)C(N)=O` (some centres unmarked), the IC50 was 77 ± 7 µM (cytotoxicity; serum-free DMEM; 1 h).
For `O=C1CCC(N2Cc3c(NC(=O)COCCOCCNCCNc4nonc4/C(=N/O)Nc4ccc(F)c(Br)c4)cccc3C2=O)C(=O)N1` (centres unmarked), the IC50 was greater than 40 µM (cytotoxicity, MTT; 48 h).
For `CC(=O)Nc1ccc(-c2csc(NC3CCCCC3)n2)cc1`, the IC50 was greater than 80 µM (cell growth or viability, resazurin; 72 h).
The IC50 of `C=C1CC[C@]2(C(=O)O)CC[C@]3(C)C(=CC[C@@H]4[C@@]5(C)CC[C@H](O)C(C)(C)[C@@H]5CC[C@]43C)[C@@H]2C1` is reported as 27.8 µM (cell growth or viability, MTT; 72 h).
`O=C(/C=C/c1ccccc1)Oc1ccc2c(c1)O/C(=C\C=C\c1ccccc1)C2=O` gave an IC50 of 35 µM (cell growth or viability, MTT; 72 h).
The IC50 of `CC(=O)Nc1ccc(-c2csc(Nc3ccc(C)cc3)n2)cc1` is reported as 39 µM (cell growth or viability, resazurin; 72 h).
`COCCOCCOc1ccc([P+](Cc2ccc(C3=C4C(C)=CC(C)=[N+]4[B-](F)(F)n4c(C)cc(C)c43)cc2)(c2ccc(OCCOCCOC)cc2)c2ccc(OCCOCCOC)cc2)cc1` gave an IC50 of 8 µM (cell growth or viability, MTT; 24 h).
`CCCCCCCCCCCCc1ccc(NC(=O)C[C@H](NC(=O)[C@H](C)NC(=O)CCCCCC2(C)C(C=CC=CC=C3N(CCCS(=O)(=O)O)c4ccc(S(=O)(=O)O)cc4C3(C)C)=[N+](CCCS(=O)(=O)[O-])c3ccc(S(=O)(=O)O)cc32)C(=O)N[C@@H](Cc2ccccc2)C(N)=O)cc1` (some centres unmarked) has an IC50 of 11 ± 3 µM (cytotoxicity; serum-free DMEM; 1 h).
The IC50 of `CN1C(=O)CCC(N2C(=O)c3cccc(NCCOCCOCCOCCOCCOCCOCCOCCNCCNc4nonc4/C(=N/O)Nc4ccc(F)c(Br)c4)c3C2=O)C1=O` (centres unmarked) is reported as greater than 40 µM (cytotoxicity, MTT; 48 h).
The IC50 of `Oc1c(Br)cc(Br)c2nc3cc(I)ccc3nc12` is reported as greater than 100 µM (cytotoxicity, LDH release; 24 h, 10% FBS).

Repeated from above:
The IC50 of `CC(=O)Nc1ccc(-c2csc(Nc3ccc(C)cc3)n2)cc1` is reported as 39 µM (cell growth or viability, resazurin; 72 h).
